{"data": "Results of several laboratories", "note": "Numbered parts are unrelated; each lists some results of a single study. Substitutions count along the parent as printed."}
{"data": "Sample 1", "target": "CCNA2, cyclin fold, Cln2 fusion (human)", "technique": "yeast growth competition, sequencing", "medium": "yeast", "setting": "strong parent motif", "reference": "not given", "reading": "higher = stronger binding", "starting sequence": "DOT1L docking peptide (human); SEAKRRIVFTITT; partner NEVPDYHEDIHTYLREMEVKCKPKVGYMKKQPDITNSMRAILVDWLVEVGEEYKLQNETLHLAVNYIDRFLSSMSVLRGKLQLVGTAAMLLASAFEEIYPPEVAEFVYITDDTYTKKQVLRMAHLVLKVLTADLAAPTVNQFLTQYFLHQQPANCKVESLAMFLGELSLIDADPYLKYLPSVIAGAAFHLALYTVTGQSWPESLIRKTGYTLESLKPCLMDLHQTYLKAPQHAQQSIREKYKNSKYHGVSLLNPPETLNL"}
{"Change": "I11A", "normalised enrichment score": 2.63}
{"Change": "R5A", "normalised enrichment score": 0.244}
{"Change": "I7A", "normalised enrichment score": 0.35}
{"Change": "K4A", "normalised enrichment score": 1.15}
{"Change": "E2A", "normalised enrichment score": 4.18}
{"Change": "T10A", "normalised enrichment score": 1.95}
{"data": "Sample 2", "target": "Interferon regulatory factor 7, full length, phosphomimetic (IRF7, Homo sapiens, UniProt Q92985, residues 1-503, S471D/S472D/S475D/S476D/S477D/S483D/S484D/S487D)", "technique": "protein-binding microarray", "molecule type": "double-stranded DNA, one strand shown", "medium": "in vitro", "tested at": "2200 nM top", "setting": "60-bp whole probe", "together with": "salmon DNA 0.4 mg/ml", "reference": "random background probes", "reading": "higher = stronger binding", "shared flanks, not repeated": "GCCTAGCAC … GTCTTGATTCGCTTGACGCTGCTG", "Residues (chain)": "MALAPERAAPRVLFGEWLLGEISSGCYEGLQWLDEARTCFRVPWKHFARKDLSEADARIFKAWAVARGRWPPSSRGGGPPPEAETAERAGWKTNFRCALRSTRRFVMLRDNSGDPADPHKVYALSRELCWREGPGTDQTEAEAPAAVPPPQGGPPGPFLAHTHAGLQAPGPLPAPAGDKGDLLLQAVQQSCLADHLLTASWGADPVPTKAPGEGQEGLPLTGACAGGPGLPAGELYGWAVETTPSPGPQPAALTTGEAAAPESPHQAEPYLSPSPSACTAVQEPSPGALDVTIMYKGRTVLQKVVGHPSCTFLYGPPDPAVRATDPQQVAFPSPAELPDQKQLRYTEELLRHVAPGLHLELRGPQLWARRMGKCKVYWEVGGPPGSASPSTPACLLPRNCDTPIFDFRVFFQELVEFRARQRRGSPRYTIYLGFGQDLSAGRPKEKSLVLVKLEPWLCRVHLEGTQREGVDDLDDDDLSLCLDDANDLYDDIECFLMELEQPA"}
{"Oligonucleotide": "TACAATTTGCTTTAGTCATTGTGCTAG", "fitted relative affinity [z-score]": 0.761}
{"Oligonucleotide": "ATGTCCTCCTCTCTCTTTCCGTGCTAG", "fitted relative affinity [z-score]": 2.67}
{"Oligonucleotide": "TCATTTTGCCCTATTTAACTGTGCTAG", "fitted relative affinity [z-score]": 2.8}
{"Oligonucleotide": "TTAGGACTGGGGTTTCGATTAGTGCTA", "fitted relative affinity [z-score]": 2.04}
{"Oligonucleotide": "TTAGATCTCAGACTGGAGTAGTGCTAG", "fitted relative affinity [z-score]": -0.39}
{"Oligonucleotide": "TCACCCCTCTAGGTTCTCACTGTGCTA", "fitted relative affinity [z-score]": 0.656}
{"Oligonucleotide": "GCATCTATCTTAAATAGGGACGTGCTA", "fitted relative affinity [z-score]": -0.0891}
{"Oligonucleotide": "TTCGATATCAGACTGGATTAGTGCTAG", "fitted relative affinity [z-score]": 0.527}
{"Oligonucleotide": "TTAGGACTGCATTTCCTTTAGTGCTAG", "fitted relative affinity [z-score]": 0.562}
{"Oligonucleotide": "GACGGTTTCGACTATGGGGACGTGCTA", "fitted relative affinity [z-score]": 3.39}
{"Oligonucleotide": "TTAGATTCCAATTTCGATTAGTGCTAG", "fitted relative affinity [z-score]": 3.29}
{"Oligonucleotide": "GGAAAAATGATGTTTTAGGTCGTGCTA", "fitted relative affinity [z-score]": -0.561}
{"Oligonucleotide": "TTAGAACTGGGTATCGGTTAGTGCTAG", "fitted relative affinity [z-score]": -0.0639}
{"Oligonucleotide": "GACGATCTGGGGTTTCGAGACGTGCTA", "fitted relative affinity [z-score]": 1.41}
{"Oligonucleotide": "CCCAAGATTGCCGTTTCCTAAGTGCTA", "fitted relative affinity [z-score]": 0.526}
{"Oligonucleotide": "TGAGGACTGGGGACTGGGTTAGTGCTA", "fitted relative affinity [z-score]": -1.02}
{"Oligonucleotide": "ATAGGTATCGGTCTCGGTTAGTGCTAG", "fitted relative affinity [z-score]": 0.986}
{"Oligonucleotide": "GACGGTTTCCTTATCCTGATGTGCTAG", "fitted relative affinity [z-score]": 2.74}
{"Oligonucleotide": "GACGGTTTCCTTTCCCCGACGTGCTAG", "fitted relative affinity [z-score]": 5.01}
{"Oligonucleotide": "TCTCATTCCAATTCTTTTTATGTGCTA", "fitted relative affinity [z-score]": 1.66}
{"Oligonucleotide": "TTTTCTTTTCATTACTGCATGTGCTAG", "fitted relative affinity [z-score]": 7.55}
{"Oligonucleotide": "TCATTTTTCTCACCACATACTGTGCTA", "fitted relative affinity [z-score]": 2.19}
{"Oligonucleotide": "TTACATTTCAGACTGGATTAGTGCTAG", "fitted relative affinity [z-score]": 1.24}
{"Oligonucleotide": "TTAGGTTTCCTTATCCTTTCGTGCTAG", "fitted relative affinity [z-score]": 2.41}
{"Oligonucleotide": "GACGGTCTCGGTATCGGAACGTGCTAG", "fitted relative affinity [z-score]": 0.252}
{"data": "Sample 3", "target": "Sal-like protein 4, full length isoform A (SALL4, Homo sapiens, UniProt Q9UJQ4, residues 1-1053)", "technique": "universal PBM", "molecule type": "double-stranded DNA, one strand shown", "medium": "in vitro", "tested at": "600 nM", "setting": "8-mer, flanks averaged, mean of replicates", "reading": "higher = stronger binding", "chain of UniProt Q9UJQ4 (whole entry, looked up)": "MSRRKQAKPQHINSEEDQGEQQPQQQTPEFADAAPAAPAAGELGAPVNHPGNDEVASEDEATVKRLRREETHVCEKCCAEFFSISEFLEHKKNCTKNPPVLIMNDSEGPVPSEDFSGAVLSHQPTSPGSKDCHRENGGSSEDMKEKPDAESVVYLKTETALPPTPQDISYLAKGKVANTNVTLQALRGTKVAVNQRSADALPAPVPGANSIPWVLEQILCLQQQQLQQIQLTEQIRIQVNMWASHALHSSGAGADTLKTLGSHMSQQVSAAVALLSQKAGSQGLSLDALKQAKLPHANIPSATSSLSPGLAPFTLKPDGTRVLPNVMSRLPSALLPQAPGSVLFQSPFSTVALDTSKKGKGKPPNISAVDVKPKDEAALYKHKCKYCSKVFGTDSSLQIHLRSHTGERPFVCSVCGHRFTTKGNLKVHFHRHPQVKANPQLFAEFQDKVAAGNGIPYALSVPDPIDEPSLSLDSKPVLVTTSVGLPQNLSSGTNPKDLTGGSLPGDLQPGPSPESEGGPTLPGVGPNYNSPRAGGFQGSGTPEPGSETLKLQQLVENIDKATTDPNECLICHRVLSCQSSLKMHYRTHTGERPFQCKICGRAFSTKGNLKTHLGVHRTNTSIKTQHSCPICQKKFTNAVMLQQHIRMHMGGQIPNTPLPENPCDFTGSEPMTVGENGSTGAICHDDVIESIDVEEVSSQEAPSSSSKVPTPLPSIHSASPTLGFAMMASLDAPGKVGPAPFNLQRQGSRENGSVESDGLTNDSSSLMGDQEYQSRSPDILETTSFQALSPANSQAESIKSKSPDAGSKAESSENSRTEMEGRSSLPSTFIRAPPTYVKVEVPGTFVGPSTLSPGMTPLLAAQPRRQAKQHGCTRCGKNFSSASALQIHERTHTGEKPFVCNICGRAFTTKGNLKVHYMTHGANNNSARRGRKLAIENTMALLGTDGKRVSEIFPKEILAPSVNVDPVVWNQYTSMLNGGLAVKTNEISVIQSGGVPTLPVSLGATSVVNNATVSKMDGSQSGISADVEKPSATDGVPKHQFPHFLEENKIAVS"}
{"Oligonucleotide": "ACAAGTGA", "E-score": 0.087}
{"Oligonucleotide": "GAGAGGCC", "E-score": -0.254}
{"Oligonucleotide": "CGCAGGCG", "E-score": -0.317}
{"Oligonucleotide": "GCGCGACC", "E-score": -0.255}
{"Oligonucleotide": "GTCTACAC", "E-score": -0.15}
{"Oligonucleotide": "ATCATCGG", "E-score": 0.0643}
{"Oligonucleotide": "CTCCCTCC", "E-score": -0.266}
{"Oligonucleotide": "CCTGCTGA", "E-score": -0.0348}
{"Oligonucleotide": "CTTACTGA", "E-score": 0.0744}
{"Oligonucleotide": "CTTACGCC", "E-score": -0.0126}
{"Oligonucleotide": "ACAGAGAG", "E-score": -0.0535}
{"Oligonucleotide": "TATTGTCA", "E-score": 0.258}
{"Oligonucleotide": "ATCACGAT", "E-score": 0.148}
{"Oligonucleotide": "ATGAGGCG", "E-score": -0.0796}
{"Oligonucleotide": "GGCTAACC", "E-score": -0.258}
{"Oligonucleotide": "AGGGGGTC", "E-score": -0.268}
{"Oligonucleotide": "AGGGCACG", "E-score": -0.267}
{"Oligonucleotide": "ACGGGCCA", "E-score": -0.227}
{"Oligonucleotide": "TCAATTCA", "E-score": 0.228}
{"Oligonucleotide": "CTCTTTTC", "E-score": 0.0333}
{"data": "Sample 4", "target": "ABI1, truncated, D143A, DHFR fusion (Arabidopsis thaliana)", "technique": "DHFR PCA, deep sequencing", "medium": "yeast", "setting": "methotrexate growth selection, single substitutions", "together with": "(+)-ABA 4.8 µM", "reference": "wild-type fitted maximum", "reading": "higher = stronger binding", "starting sequence": "PYL1, truncated, DHFR fusion (Arabidopsis thaliana); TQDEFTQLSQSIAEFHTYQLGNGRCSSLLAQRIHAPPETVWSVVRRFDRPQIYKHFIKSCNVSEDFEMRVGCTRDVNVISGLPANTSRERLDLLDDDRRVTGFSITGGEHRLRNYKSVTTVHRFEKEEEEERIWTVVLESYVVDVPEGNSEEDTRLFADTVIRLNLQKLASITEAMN; partner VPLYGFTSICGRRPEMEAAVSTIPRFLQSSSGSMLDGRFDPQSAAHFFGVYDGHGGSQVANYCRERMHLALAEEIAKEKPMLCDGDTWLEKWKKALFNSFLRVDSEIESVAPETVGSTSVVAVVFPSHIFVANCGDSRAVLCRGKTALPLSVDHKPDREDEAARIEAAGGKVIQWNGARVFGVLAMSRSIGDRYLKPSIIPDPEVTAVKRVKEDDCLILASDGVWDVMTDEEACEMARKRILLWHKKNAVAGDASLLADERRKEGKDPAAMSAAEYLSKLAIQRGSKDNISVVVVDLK"}
{"Change": "E128D", "relative binding score": "82.7%"}
{"Change": "W41A", "relative binding score": "-11.2%"}
{"Change": "T17Y", "relative binding score": "22.5%"}
{"Change": "T160S", "relative binding score": "24.9%"}
{"Change": "F157W", "relative binding score": "11.9%"}
{"Change": "M68S", "relative binding score": "24%"}
{"Change": "I12A", "relative binding score": "5.61%"}
{"Change": "T86C", "relative binding score": "69.3%"}
{"Change": "R111H", "relative binding score": "-2.7%"}
{"Change": "W134F", "relative binding score": "79.7%"}
{"Change": "T119M", "relative binding score": "58.6%"}
{"Change": "F66D", "relative binding score": "46.6%"}
{"Change": "T106A", "relative binding score": "10.5%"}
{"Change": "V76A", "relative binding score": "13.3%"}
{"Change": "R49V", "relative binding score": "37.6%"}
{"Change": "Y141M", "relative binding score": "-5.28%"}
{"Change": "F124Q", "relative binding score": "43.3%"}
{"Change": "R155K", "relative binding score": "80.5%"}
{"Change": "V43A", "relative binding score": "16.5%"}
{"Change": "D95A", "relative binding score": "-2.6%"}
{"Change": "T173Q", "relative binding score": "-4.46%"}
{"Change": "Y115C", "relative binding score": "13.6%"}
{"Change": "H55D", "relative binding score": "46.2%"}
{"Change": "A35R", "relative binding score": "8.06%"}
{"data": "Sample 5", "target": "NFE2L3, bZIP domain (human)", "technique": "DHFR protein complementation", "medium": "yeast", "setting": "single substitutions, most at no-binding floor", "reference": "wild-type JUN-FOS pair", "reading": "higher = stronger binding", "starting sequence": "JUN, bZIP domain (human); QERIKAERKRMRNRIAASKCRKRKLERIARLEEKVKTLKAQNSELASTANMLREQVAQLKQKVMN; partner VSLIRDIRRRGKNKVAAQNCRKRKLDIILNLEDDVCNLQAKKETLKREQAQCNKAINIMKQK"}
{"Change": "L38D", "binding fitness": "-1.56 natural log"}
{"Change": "L31A", "binding fitness": "-1.49 natural log"}
{"Change": "I28D", "binding fitness": "-1.55 natural log"}
{"Change": "A40G", "binding fitness": "-1.41 natural log"}
{"Change": "T48V", "binding fitness": "-1.46 natural log"}
{"Change": "V56Q", "binding fitness": "-1.49 natural log"}
{"Change": "M51W", "binding fitness": "-1.53 natural log"}
{"Change": "A46P", "binding fitness": "-1.48 natural log"}
{"Change": "V35N", "binding fitness": "-1.45 natural log"}
{"Change": "K36M", "binding fitness": "-1.44 natural log"}
{"Change": "M51A", "binding fitness": "-1.38 natural log"}
{"Change": "L38F", "binding fitness": "-1.52 natural log"}
{"Change": "K34P", "binding fitness": "-1.49 natural log"}
{"Change": "K36V", "binding fitness": "-1.53 natural log"}
{"Change": "A46C", "binding fitness": "-1.4 natural log"}
{"Change": "K36A", "binding fitness": "-1.47 natural log"}
{"Change": "L45N", "binding fitness": "-1.43 natural log"}
{"Change": "L31V", "binding fitness": "-1.43 natural log"}
{"Change": "E33I", "binding fitness": "-1.5 natural log"}
{"Change": "T48R", "binding fitness": "-1.54 natural log"}
{"Change": "E32H", "binding fitness": "-1.27 natural log"}
{"Change": "E54T", "binding fitness": "-1.58 natural log"}
{"Change": "S47Y", "binding fitness": "-1.52 natural log"}
{"Change": "R53P", "binding fitness": "-1.53 natural log"}
